Measured values of several laboratories.
Each line is one published result; not all experiments were run side by side.
Method: steady-state kinetics
B1: enzyme A167S/Y136L (Bradyrhizobium diazoefficiens, UniProt Q45222); chain MIQTERAVQQVLEWGRSLTGFADEHAVEAVRGGQYILQRIHPSLRGTSARTGRDPQDETLIVTFYRELALLFWLDDCNDLGLISPEQLAAVEQALGQGVPCALPGFEGCAVLRASLATLAYDRRDYAQLLDDTRCLSAALRAGHAQAVAAERWSYAEYLHNGIDSISYANVFCCLSLLWGLDMATLRARPAFRQVLRLISAIGRLQNDLHGCDKDRSAGEADNAVILLLQRYPAMPVVEFLNDELAGHTRMLHRVMAEERFPAPWGPLIEAMAAIRVQYYRTSTSRYRSDAVRGGQRAPA
B2: enzyme (Myxococcus xanthus, UniProt Q1D964); chain MTDLSAKNPKDTEVVMTQLILPPDANNLDAAFGGKVMQWIDICGAVAAQRHCRQVVVTASMDDLHFHAPIKVGWVALLHGRVLAAFRTSMEVGVTVHAENPLTGERHLTTSALLTFVAIDKDGQRVPVPPLLMETDADRMAFQEAQTRRTLRLARQKENQSWLKVMTPIAGA
B3: enzyme (Nicotiana tabacum, UniProt A0A1S3XCJ5); chain MLPQLSNSSGSGYSWMQDNSASCGNFSRNGRKQGPLNSVAPTERAQISSVDDLYDFICSGPLINKIGLTPEKVAESIDKWIEYGFRLCRLFQLNQLALNEPQKIRLYHYYIPVFLWCEQEISQHSSKFKDNEEIPPLVIGFSAPQGCGKTTLVFALEYLFKITGRKAATLSIDDFYLTAEEQAKLRENNPGNLLLEFRGNAGSHDLSLSVETLAELSKVTKEGVKMKLPRYDKSAYNGRGDRADPSTWPEVEGPLTVILFEGWMLGFKPLPPEAVKAVDPQLETVNKNLEAYYDAWYKYVKSWIIIKIHDPSYVYQWRLQAEIAMRADGNPGMSDEEVRDFVSRYLPAYKAYLPTLYSEGPTGADPEHVLLVEIDEGRNPILGS
B4: efeB (Bacillus subtilis, UniProt P39597); chain IGASGLGGLAPLVQTAAKPSKKDEKEEEQIVPFYGKHQAGITTAHQTYVYFAALDVTAKDKSDIITLFRNWTSLTQMLTSGKKMSAEQRNQYLPPQDTGESADLSPSNLTVTFGFGPGFFEKDGKDRFGLKSKKPKHLAALPAMPNDNLDEKQGGGDICIQVCADDEQVAFHALRNLLNQAVGTCEVRFVNKGFLSGGKNGETPRNLFGFKDGTGNQSTKDDTLMNSIVWIQSGEPDWMTGGTYMAFRKIKMFLEVWDRSSLKDQEDTFGRRKSSGAPFGQKKETDPVKLNQIPSNSHVSLAKSTGKQILRRAFSYTEGLDPKTGYMDAGLLFISFQKNPDNQFIPMLKALSAKDALNEYTQTIGSALYACPGGCKKGEYIAQRLLES
B5: enzyme (Staphylococcus epidermidis, UniProt Q9FD73); chain MVKSGKARAHTNIALIKYWGKADETYIIPMNNSLSVTLDRFYTETKVTFDPDFTEDCLILNGNEVNAKEKEKIQNYMNIVRDLAGNRLHARIESENYVPTAAGLASSASAYAALAAACNEALSLNLSDTDLSRLARRGSGSASRSIFGGFAEWEKGHDDLTSYAHGINSNGWEKDLSMIFVVINNQSKKVSSRSGMSLTRDTSRFYQYWLDHVDEDLNEAKEAVKNQDFQRLGEVIEANGLRMHATNLGAQPPFTYLVQESYDAMAIVEQCRKANLPCYFTMDAGPNVKVLVEKKNKQAVMEQFLKVFDESKIIASDIISSGVEIIK
B6: UGT1A1 (Homo sapiens, UniProt P22309); chain HAGKILLIPVDGSHWLSMLGAIQQLQQRGHEIVVLAPDASLYIRDGAFYTLKTYPVPFQREDVKESFVSLGHNVFENDSFLQRVIKTYKKIKKDSAMLLSGCSHLLHNKELMASLAESSFDVMLTDPFLPCSPIVAQYLSLPTVFFLHALPCSLEFEATQCPNPFSYVPRPLSSHSDHMTFLQRVKNMLIAFSQNFLCDVVYSPYATLASEFLQREVTVQDLLSSASVWLFRSDFVKDYPRPIMPNMVFVGGINCLHQNPLSQEFEAYINASGEHGIVVFSLGSMVSEIPEKKAMAIADALGKIPQTVLWRYTGTRPSNLANNTILVKWLPQNDLLGHPMTRAFITHAGSHGVYESICNGVPMVMMPLFGDQMDNAKRMETKGAGVTLNVLEMTSEDLENALKAVINDKSYKENIMRLSSLHKDRPVEPLDLAVFWVEFVMRHKGAPHLRPAAHDLTWYQYHSLDVIGFLLAVVLTVAFITFKCCAYGYRKCLGKKGRVKKAHKSKTH
B7: enzyme S252E/S281E/S285E/S287E (Schizosaccharomyces pombe, UniProt P78804); chain MSTPYEPEFQQAYKEIVGSIESSKLFEVHPELKRVLPIISIPERVLEFRVTWEDDKGNCRVNTGYRVQFNSALGPYKGGLRFHPSVNLSILKFLGFEQIFKNALTGLPMGGGKGGSDFDPKGKSDNEIRRFSQAFMRQLFRYIGPQTDVPAGDIGVTGFVVMHMFGEYKRLRNEYSGVVTGKHMLTGGSNIRPEATGYGVVYYVKHMIEHRTKGAETLKGKRVAISGSGNVAQYAALKCIQEGAIVKSISDEKGVLIAKTAEGLVPEEIHEIMALKEKRAEIADEAELCKKHHYIAGARPWTNVGEIDIALPCATQNEVSGEEAAALIKQGCRYVAEGSNMGSSAEAVEVFEKSRASGEGCWLAPGKAANAGGVAVSGLEMAQNAQFSTWTHAEVDAKLAGIMQNIFEQSTDVASKYCDSGSNNIPSLVDGANIAGFLKVATAMQAVGDWW
B8: enzyme (UniProt P0DY30); chain ESPWIGVHFMVYTDKMLDQLAEQLPALSKRGVTHLILEINYHFAYKSHPELAPTNGITVVGAKKFADTARAHHIEIIPQINCLGHQSWKQNNAALLKHYPQFDETPGAYPDNKDIYCRSWCPQHPEVNRVVFALIDELIDAFEAKAFHVGMDEVFLIASEHCERCRGGDPAALFAKAVNDLHGHIVGKRGVQMLMWGDRLLDAEQTGYGKWEASGNGTAPAIDRIPKDIVLCDWHYEKRDRYPSLAVFLDKGFRVWPAGWKKPEAAEAFAAAARGCQNPRLLGYLCTTWGAVEIPNLADWPALLRPIEKIIAP
B9: aspC A106G/A218G/F210I/I29V/I33V/I68L/I71L/N30D/N64T/S135A/T100S/V136I/V375I (Escherichia coli, UniProt P00509); chain MFENITAAPADPILGLADLFRADERPGKVDLGVGVYKDETGKTPVLTSVKKAEQYLLENETTKTYLGLDGLPEFGRCTQELLFGKGSALINDKRARTAQSPGGTGGLRVAADFLAKNTSVKRVWVSNPSWPNHKAIFNSAGLEVREYAYYDAENHTLDFDALINSLNEAQAGDVVLFHGCCHNPTGIDPTLEQWQTLAQLSVEKGWLPLIDFAYQGFGRGLEEDAEGLRAFAAMHKELIVASSYSKNFGLYNERVGACTLVAADSETVDRAFSQMKAAIRANYSNPPAHGASVVATILSNDALRAIWEQELTDMRQRIQRMRQLFVNTLQEKGANRDFSFIIKQNGMFSFSGLTKEQVLRLREEFGVYAVASGRINVAGMTPDNMAPLCEAIVAVL
Sequence of UniProt Q4U2R8 (whole entry, looked up): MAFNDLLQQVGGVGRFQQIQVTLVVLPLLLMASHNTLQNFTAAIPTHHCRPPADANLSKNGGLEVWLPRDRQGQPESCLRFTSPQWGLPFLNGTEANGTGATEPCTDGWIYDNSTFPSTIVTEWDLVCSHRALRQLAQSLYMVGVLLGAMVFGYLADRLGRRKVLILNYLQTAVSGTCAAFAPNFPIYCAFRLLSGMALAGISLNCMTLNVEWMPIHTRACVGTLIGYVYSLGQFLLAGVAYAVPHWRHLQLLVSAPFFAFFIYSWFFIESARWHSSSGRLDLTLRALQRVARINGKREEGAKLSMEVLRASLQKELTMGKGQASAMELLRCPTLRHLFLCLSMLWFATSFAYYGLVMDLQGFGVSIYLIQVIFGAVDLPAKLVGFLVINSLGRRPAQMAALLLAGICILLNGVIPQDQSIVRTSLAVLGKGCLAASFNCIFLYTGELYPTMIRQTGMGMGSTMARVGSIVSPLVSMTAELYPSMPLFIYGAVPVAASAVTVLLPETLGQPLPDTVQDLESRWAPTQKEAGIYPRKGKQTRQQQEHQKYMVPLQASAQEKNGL
Sequence of UniProt P09546 (whole entry, looked up): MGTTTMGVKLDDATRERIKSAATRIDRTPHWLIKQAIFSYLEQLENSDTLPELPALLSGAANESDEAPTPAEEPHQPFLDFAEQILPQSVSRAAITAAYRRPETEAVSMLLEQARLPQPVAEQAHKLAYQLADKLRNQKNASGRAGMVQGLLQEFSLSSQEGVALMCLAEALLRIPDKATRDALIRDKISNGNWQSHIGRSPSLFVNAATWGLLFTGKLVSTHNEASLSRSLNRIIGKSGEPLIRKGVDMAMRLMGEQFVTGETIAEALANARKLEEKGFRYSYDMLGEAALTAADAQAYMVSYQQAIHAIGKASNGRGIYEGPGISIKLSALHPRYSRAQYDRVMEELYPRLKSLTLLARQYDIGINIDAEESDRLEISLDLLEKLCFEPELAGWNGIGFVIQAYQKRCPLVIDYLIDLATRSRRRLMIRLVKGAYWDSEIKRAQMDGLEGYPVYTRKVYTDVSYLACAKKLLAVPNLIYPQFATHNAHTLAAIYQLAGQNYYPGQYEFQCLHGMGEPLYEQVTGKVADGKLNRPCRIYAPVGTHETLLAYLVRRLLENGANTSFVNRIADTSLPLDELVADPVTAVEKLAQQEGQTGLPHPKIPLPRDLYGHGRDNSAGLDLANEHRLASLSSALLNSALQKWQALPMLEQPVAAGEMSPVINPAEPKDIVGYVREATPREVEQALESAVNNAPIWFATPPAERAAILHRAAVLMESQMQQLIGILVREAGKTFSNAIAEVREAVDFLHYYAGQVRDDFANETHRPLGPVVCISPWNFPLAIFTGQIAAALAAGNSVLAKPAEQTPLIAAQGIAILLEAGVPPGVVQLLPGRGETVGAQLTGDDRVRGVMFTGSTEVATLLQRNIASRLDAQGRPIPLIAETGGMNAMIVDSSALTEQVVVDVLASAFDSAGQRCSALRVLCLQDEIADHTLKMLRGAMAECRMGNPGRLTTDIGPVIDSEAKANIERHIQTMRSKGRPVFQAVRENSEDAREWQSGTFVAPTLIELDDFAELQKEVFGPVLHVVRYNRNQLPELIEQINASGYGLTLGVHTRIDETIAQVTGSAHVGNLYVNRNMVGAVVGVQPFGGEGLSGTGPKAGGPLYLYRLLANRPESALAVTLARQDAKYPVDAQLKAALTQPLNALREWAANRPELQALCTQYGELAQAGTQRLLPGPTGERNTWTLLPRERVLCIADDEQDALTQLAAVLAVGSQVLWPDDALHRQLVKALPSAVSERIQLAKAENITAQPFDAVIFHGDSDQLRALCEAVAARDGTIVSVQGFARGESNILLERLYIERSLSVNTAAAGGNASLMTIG
Sequence of UniProt P10632 (whole entry, looked up): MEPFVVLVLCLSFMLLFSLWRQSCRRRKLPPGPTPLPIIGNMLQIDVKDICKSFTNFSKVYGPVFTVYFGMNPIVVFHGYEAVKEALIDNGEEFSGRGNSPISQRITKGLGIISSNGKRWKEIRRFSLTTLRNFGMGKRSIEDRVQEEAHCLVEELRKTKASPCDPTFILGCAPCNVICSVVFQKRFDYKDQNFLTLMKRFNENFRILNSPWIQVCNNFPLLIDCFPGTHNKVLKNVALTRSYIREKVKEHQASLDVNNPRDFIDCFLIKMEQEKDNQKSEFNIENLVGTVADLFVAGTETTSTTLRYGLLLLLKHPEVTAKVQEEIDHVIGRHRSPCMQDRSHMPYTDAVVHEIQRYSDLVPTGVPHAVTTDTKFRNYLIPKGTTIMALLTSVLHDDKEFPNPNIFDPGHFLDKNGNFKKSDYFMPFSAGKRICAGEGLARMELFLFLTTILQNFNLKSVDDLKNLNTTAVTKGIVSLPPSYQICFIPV

| Molecule | substrate | cell line | pH | temperature | setting | added | Km |
| --- | --- | --- | --- | --- | --- | --- | --- |
| B1 (enzyme A167S/Y136L) | C=C1CC[C@@H]2C(C)(C)CCC[C@@]2(C)[C@@H]1CC/C(C)=C/COP(=O)(O)OP(=O)(O)O |  |  |  |  |  | 3.74 µM |
| B2 (enzyme) | CC(=O)SCCNC(=O)CCNC(=O)[C@H](O)C(C)(C)COP(=O)(O)OP(=O)(O)OC[C@H]1O[C@@H](n2cnc3c(N)ncnc32)[C@H](O)[C@@H]1OP(=O)(O)O |  | pH 8 | 25 °C |  |  | 180 µM |
| B3 (enzyme) | O=C(O)[C@H](O)CO |  | pH 7.8 | 30 °C |  |  | 410 µM |
| B4 (efeB) | CCn1c(=NN=c2sc3cc(S(=O)(=O)O)ccc3n2CC)sc2cc(S(=O)(=O)O)ccc21 |  | pH 6 | 25 °C | apparent |  | 1400 µM |
| CYP2J2 L2A (Homo sapiens) | CC/C=C\C/C=C\C/C=C\C/C=C\C/C=C\CCCC(=O)O |  |  |  |  |  | 251 µM |
| B5 (enzyme) | Nc1ncnc2c1ncn2[C@@H]1O[C@H](COP(=O)(O)OP(=O)(O)OP(=O)(O)O)[C@@H](O)[C@H]1O |  | pH 7 | 30 °C |  |  | 26.7 µM |
| B6 (UGT1A1) | O=c1c(O)c(-c2ccc(O)c(O)c2)oc2cc(O)ccc12 |  |  | 37 °C | not purified |  | 2.7 µM |
| B7 (enzyme S252E/S281E/S285E/S287E) | NC(=O)c1ccc[n+]([C@@H]2O[C@H](COP(=O)(O)OP(=O)(O)OC[C@H]3O[C@@H](n4cnc5c(N)ncnc54)[C@H](O)[C@@H]3O)[C@@H](O)[C@H]2O)c1 |  | pH 7 | 30 °C | apparent |  | 2100 µM |
| enzyme (Pseudanabaena biceps, UniProt L8N0N6) | NC(=O)c1ccc[n+]([C@@H]2O[C@H](COP(=O)(O)OP(=O)(O)OC[C@H]3O[C@@H](n4cnc5c(N)ncnc54)[C@H](O)[C@@H]3O)[C@@H](O)[C@H]2O)c1 |  | pH 7.4 | 30 °C | apparent, cofactor varied |  | 920 µM |
| SLC22A6 (Homo sapiens, UniProt Q4U2R8) | O=C(O)c1ccc(C(=O)O)c(-c2c3ccc(=O)cc-3oc3cc(O)ccc23)c1 | HEK293/hOAT1 |  | 37 °C | uptake, not purified |  | 13.7 µM |
| B8 (enzyme) | CC(=O)N[C@H]1[C@H](Oc2ccc([N+](=O)[O-])cc2)O[C@H](CO)[C@@H](O)[C@@H]1O[C@@H]1O[C@H](CO)[C@H](O)[C@H](O)[C@H]1O |  | pH 6 | 50 °C |  |  | 1090 µM |
| putA (Escherichia coli, UniProt P09546) | O=C(O)[C@@H]1CCCN1 |  | pH 7.4 |  |  | CoQ1 | 47500 µM |
| enzyme (Nicotiana tabacum, UniProt Q70G33) | O=C(O)[C@]1(O)C[C@@H](O)[C@@H](O)[C@H](O)C1 |  | pH 7.5 | 37 °C |  |  | 850 µM |
| CYP2C8 (Homo sapiens, UniProt P10632) | CC(C)=CCc1cc2c(cc1O)O[C@H](c1ccc(O)cc1)CC2=O |  | pH 7.4 | 37 °C |  |  | 9.68 µM |
| B9 | N[C@@H](CC(=O)O)C(=O)O |  | pH 7.5 | 25 °C |  | PLP 20 µM | 1200 µM |

Some of these lines once more:
| Molecule | substrate | cell line | pH | temperature | setting | added | Km |
| --- | --- | --- | --- | --- | --- | --- | --- |
| B2 (enzyme) | CC(=O)SCCNC(=O)CCNC(=O)[C@H](O)C(C)(C)COP(=O)(O)OP(=O)(O)OC[C@H]1O[C@@H](n2cnc3c(N)ncnc32)[C@H](O)[C@@H]1OP(=O)(O)O |  | pH 8 | 25 °C |  |  | 180 µM |
| B1 (enzyme A167S/Y136L) | C=C1CC[C@@H]2C(C)(C)CCC[C@@]2(C)[C@@H]1CC/C(C)=C/COP(=O)(O)OP(=O)(O)O |  |  |  |  |  | 3.74 µM |
